# Published values collected from several papers.
# Compare with care: the assays were run in different laboratories. Numbers after ± are the reported error.
# Sequence of UniProt P21397 (whole entry, looked up): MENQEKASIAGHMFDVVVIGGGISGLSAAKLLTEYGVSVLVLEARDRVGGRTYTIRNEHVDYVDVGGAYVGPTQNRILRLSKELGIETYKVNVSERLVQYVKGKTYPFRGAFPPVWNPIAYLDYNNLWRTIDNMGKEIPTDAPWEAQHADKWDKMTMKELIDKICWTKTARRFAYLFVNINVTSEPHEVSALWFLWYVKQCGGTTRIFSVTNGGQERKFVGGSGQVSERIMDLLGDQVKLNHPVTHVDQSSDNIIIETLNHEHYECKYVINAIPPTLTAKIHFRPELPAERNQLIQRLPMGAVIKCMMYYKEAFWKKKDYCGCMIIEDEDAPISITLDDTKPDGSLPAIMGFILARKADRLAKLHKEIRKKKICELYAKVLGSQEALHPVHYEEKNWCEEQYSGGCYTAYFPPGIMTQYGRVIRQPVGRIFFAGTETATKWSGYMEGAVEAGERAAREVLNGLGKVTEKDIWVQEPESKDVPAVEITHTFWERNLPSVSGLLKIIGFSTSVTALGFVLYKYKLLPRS
# Sequence of UniProt P08684 (whole entry, looked up): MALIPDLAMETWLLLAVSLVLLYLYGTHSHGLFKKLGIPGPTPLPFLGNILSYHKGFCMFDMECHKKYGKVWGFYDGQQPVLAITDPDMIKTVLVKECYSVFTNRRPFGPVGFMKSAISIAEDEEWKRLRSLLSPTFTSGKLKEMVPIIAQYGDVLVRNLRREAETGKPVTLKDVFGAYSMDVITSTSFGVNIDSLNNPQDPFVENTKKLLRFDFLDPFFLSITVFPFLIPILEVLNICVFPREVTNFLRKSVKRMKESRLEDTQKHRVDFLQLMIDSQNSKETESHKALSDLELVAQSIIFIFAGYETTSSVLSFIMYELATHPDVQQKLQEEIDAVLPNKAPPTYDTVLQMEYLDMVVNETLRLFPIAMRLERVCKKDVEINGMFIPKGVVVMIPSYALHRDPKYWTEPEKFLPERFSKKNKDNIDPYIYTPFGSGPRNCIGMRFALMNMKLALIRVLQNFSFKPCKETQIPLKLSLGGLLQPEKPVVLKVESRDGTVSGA
SMILES,tested on,test,system,setting,how to read,measurement,result
Cc1cc(N)c2c(OCC(C)(C)C(=O)NC(C)C)cccc2n1,Salmonella typhimurium,"reverse mutation, plate incorporation",TA98,"1000 µg/plate, without S9",,mean revertant colonies,18 colonies/plate
N#Cc1ccc2c(c1)[C@H]1CCCN(C(=O)c3ccc4[nH]cnc4c3)[C@H]1C2,,,"human, female","240 mg, day 15",,androstenedione level,7.2 nmol/L
Cn1cc(-c2ccc(-c3cncc(Cl)c3N3CCC4(CCNC4=O)CC3)cc2)cn1,COLO 205,"gene expression, microarray, item: KITLG mRNA",,"concentration not given, 2 h",relative to: untreated cells,log2 fold change,1.54
CN1CCN(c2cnc3c(cc(C(=O)NCc4ccc(Cl)cc4)c(=O)n3CC(=O)N3CC(C)(F)C3)n2)C1=O,Epstein-Barr virus,qPCR,,single first test,relative to: CC50 over EC50,selectivity index,215
CC[C@H](CO)N(CCN(N=O)[C@H](CC)CO)N=O,Salmonella typhimurium,plate incorporation,"TA1535, water","150 µg/plate, without S9",,revertant colonies per plate,14.3 ± 8
Cc1cc(Nc2ccc(S(F)(F)(F)(F)F)cc2)n2nc(C(C)(F)F)nc2n1,Plasmodium falciparum,,P. falciparum malaria patients,"oral, 400 mg",,patients with blurred vision,7.7%
CC1(C)OB(c2ccc(CNS(=O)(=O)c3cc(C(=O)Nc4cc(F)c(F)c(F)c4)ccc3F)cc2)OC1(C)C,hepatitis B virus,,HepAD38,,relative to: CC50 over EC50,selectivity index,11.7
CC(C)(C(=O)N1CCOc2c(C#N)cncc2C1)C(F)F,,,"human, both sexes","oral, 40 mg single dose",,subjects with headache TEAE,0%
NCc1cc2c(cc1F)C(=O)N(C1CCC(=O)NC1=O)C2 (stereo not drawn),"MAOA (Homo sapiens, UniProt P21397)","substrate, LC-MS/MS",recombinant enzyme,"10 µM, 4 h, pH 7.4",,concentration,8.6 µM
CC1(C)CCC(c2ccc(Cl)cc2)=C(CN2CCN(c3ccc(C(=O)NS(=O)(=O)c4ccc(N[C@H](CCN5CCOCC5)CSc5ccccc5)c(S(=O)(=O)C(F)(F)F)c4)cc3)CC2)C1,C2BBe1 monolayers,drug in secreted lipoproteins,,"50 % saturated solubility, with: oleic acid/2-monoolein micelles",relative to: taurocholate/phosphatidylcholine micelles,max increase of Papp,1.3 fold
O=C(Nc1cc(F)c(F)c(F)c1)c1ccc(F)c(S(=O)(=O)NCc2ccc(B(O)O)cc2)c1,hepatitis B virus,,HepAD38,,relative to: CC50 over EC50,selectivity index,16.6
CC[C@H]1[C@@H](O)[C@@H]2[C@H](CC[C@]3(C)[C@@H]([C@H](C)CCNC(=O)NS(=O)(=O)c4ccc(C(C)(C)C)cc4)CC[C@@H]23)[C@@]2(C)CC[C@@H](O)C[C@@H]12,"Cytochrome P450 3A4 (CYP3A4, Homo sapiens, UniProt P08684)",,"human, plasma","geometric mean, with: fluconazole",,Tlast,120 h

# Excerpt of the above:
SMILES,tested on,test,system,setting,how to read,measurement,result
N#Cc1ccc2c(c1)[C@H]1CCCN(C(=O)c3ccc4[nH]cnc4c3)[C@H]1C2,,,"human, female","240 mg, day 15",,androstenedione level,7.2 nmol/L
NCc1cc2c(cc1F)C(=O)N(C1CCC(=O)NC1=O)C2 (stereo not drawn),"MAOA (Homo sapiens, UniProt P21397)","substrate, LC-MS/MS",recombinant enzyme,"10 µM, 4 h, pH 7.4",,concentration,8.6 µM
